# Measured values collected from several papers.
# Lines come from different studies, so protocols differ.
# B1: IGFBP7 30-159 K146A (Homo sapiens, UniProt Q16270); chain DTCGPCEPASCPPLPPLGCLLGETRDACGCCPMCARGEGEPCGGGGAGRGYCAPGMECVKSRKRRKGKAGAAAGGPGVSGVCVCKSRYPVCGSDGTTYPSGCQLRAASQRAESRGEAAITQVSKGTCEQG
# B2: KAT7 364-473 (Homo sapiens, UniProt O95251); sequence looked up; chain RLYMCEFCLKYMKSQTILRRHMAKCVWKHPPGDEIYRKGSISVFEVDGKKNKIYCQNLCLLAKLFLDHKTLYYDVEPFLFYVMTEADNTGCHLIGYFSKEKNSFLNYNVS
# B3: BECN1 90-171 (Homo sapiens, UniProt A0A024R1X5); sequence looked up; chain STESANSFTLIGEASDGGTMENLSRRLKVTGDLFDIMSGQTDVDHPLCEECTDTLLDQLDTQLNVTENECQNYKRCLEILEQ
# B4: lpxC 1-305 (Escherichia coli, UniProt P0A725); chain MIKQRTLKRIVQATGVGLHTGKKVTLTLRPAPANTGVIYRRTDLNPPVDFPADAKSVRDTMLCTCLVNEHDVRISTVEHLNAALAGLGIDNIVIEVNAPEIPIMDGSAAPFVYLLLDAGIDELNCAKKFVRIKETVRVEDGDKWAEFKPYNGFSLDFTIDFNHPAIDSSNQRYAMNFSADAFMRQISRARTFGFMRDIEYLQSRGLCLGGSFDCAIVVDDYRVLNEDGLRFEDEFVRHKMLDAIGDLFMCGHNIIGAFTAYKSGHALNNKLLQAVLAKQEAWEYVTFQDDAELPLAFKAPSAVLA
# B5: PEX6 1-1030 (Saccharomyces cerevisiae, UniProt P33760); chain MKASLTFSLSGIYAPCSISRDIYLEYGDKKAECLYGTIRLPQYGPGCTPGKIVHCVLDDSLPFCSIVVPSKLFGFMPTQPTMDFCYFEPILDNVVPVLDSVTFLINEQLYSKLMDLPQEMQQIQFLHYKYNINSMETVVHSRDILTSGLCQILNCSPFPQGLVDFTETQLILVNDTEQKLSALKYANEDEEYALPKIGTNSALSIDLESLPCTISRDLLRPAPHINDDNSIYAFTDAETLLRLDVTSGSFITVSNMGCVRLVKLFVLLLPNGFKKRTIYAPPKIIASFPDCSVVTISKSNIGHTDIPIANQVFISRVGGWLQSQKCFQNIILTTLKKFFSESKRILCQNDLIPIAFDSSMADLNIAEENDESDDEDELGQYYKNDSLVWFFVTSAELDCFSKDNSHFIIDPNRTKLITTNITNRRPLPLSRSNLQRYYGFAETFYYDLHIFPYVRQLVNILETSFNCSQRGITLNASVLLHSTTNNVGKATMVRFASKYLGIHLLEIDCLSLTSNSRQLDSTSKIIGYIRAKCENVLPYASPAVIFLAHLDSILLDVNANQDPEAIKLQKSINFEMSKLLDDFTFKFPGTTFVGSVNNIDNVPSSFRSHMRFEILVPVPSEAQRLRIFQWYLSSHELNRDVQQKVPVSYMDNISFSSLSSYSAGLTPLDIKSIVETARMTATARFYQESKKCGWLPQSILITQEDLSKATSKARNEFSVSIGAPQIPNVTWDDIGGIDFVKGEILDTIDMPLKHPELFTSGMKKRSGILFYGPPGTGKTLMAKAIATNFSLNFFSVKGPELLNMYIGESEANVRRVFQKAREAKPCVIFFDEIDSVAPKRGNQGDSGGVMDRIVSQLLAELDGMSTDADGVFVIGATNRPDLLDEALLRPGRFDKLLYLGIPDTDTKQLNILEALTRKFVLDNDVKLIELAKLCPFNYTGADFYALCSDAMLNAMSRIARMVEKKVSQHNELTGENISTRRWFDKIATKEDTKVVVKMEDFLKAQEQLTPSVSRAELNHYEAVRANFEGA
# B6: nap1l1 (Xenopus laevis, UniProt Q4U0Y4-2); chain MANIDNKGQTELDQQDMEDVEDVEEEETGEDANSKARQLTAQMMQNPQVLAALQERLDDLVGTPTGYIESLPKVVKRRVNALKNLQVKCAQIEAKFYEEVHELERKYAALYQPLFDKRSDIINATYEPTEEECEWKVEEEDISGDLKEKAKLEEEKKDEEKEDPKGIPEFWLTVFKNVDLLSDMLQEHDEPILKHLKDIKVKFSDAGQPMSFTLEFYFEPNEFFTNEVLTKTYKMRSEPDESDPFSFDGPEIMGCTGCLIDWKKGKNVTLKTIKKKQKHKGRGTVRTVTKTVPNDSFFNFFTPPEVPENGELDDDAEAILTADFEIGHFLRERIIPRSVLYFTGEAIEDDDDDYDEEGEEADDEEGEEEADEDNDPDYEPKV
# B7: pduL (Salmonella enterica, UniProt Q9XDN5); sequence looked up; chain MDKELLQSTVRKVLDEMRQRPIPLGVSNRHIHLSAQDYERLFPGHPISEKKALLQPGQYAAEQTVTLVGPKGQLKNVRLLGPLRSVSQVEISRTDARTLGIAAPLRMSGNLKGTPGIRLVSPFAELELPSGVIVAQRHIHMSPLDALILRVSHGDMVSVAIEGDDRGLIFNNVAIRVSPDMRLEMHIDTDEANAAGADNPHAFARLVGPR
# B8: POLA1 1265-1462 (Homo sapiens, UniProt P09884); sequence looked up; chain AQLTDEEKYRDCERFKCPCPTCGTENIYDNVFDGSGTDMEPSLYRCSNIDCKASPLTFTVQLSNKLIMDIRRFIKKYYDGWLICEEPTCRNRTRHLPLQFSRTGPLCPACMKATLQPEYSDKSLYTQLCFYRYIFDAECALEKLTTDHEKDKLKKQFFTPKVLQDYRKLKNTAEQFLSRSGYSEVNLSKLFAGCAVKS
# B9: SEC61B/FDFT1 /378-end 2-59 L401C/S39C (Homo sapiens); chain PGPTPSGTNVGSSGRSPSKAVAARAAGSTVRQRKNASSGTRSAGRTTSAGTGGMWRFYSRSHYSPIYLSFVMLLAALSWQYCTTLSQVTEDYVQTGEH
# B10: POL31 (Saccharomyces cerevisiae, UniProt P46957); sequence looked up; chain MDALLTKFNEDRSLQDENLSQPRTRVRIVDDNLYNKSNPFQLCYKKRDYGSQYYHIYQYRLKTFRERVLKECDKRWDAGFTLNGQLVLKKDKVLDIQGNQPCWCVGSIYCEMKYKPNVLDEVINDTYGAPDLTKSYTDKEGGSDEIMLEDESGRVLLVGDFIRSTPFITGVVVGILGMEAEAGTFQVLDICYPTPLPQNPFPAPIATCPTRGKIALVSGLNLNNTSPDRLLRLEILREFLMGRINNKIDDISLIGRLLICGNSVDFDIKSVNKDELMISLTEFSKFLHNILPSISVDIMPGTNDPSDKSLPQQPFHKSLFDKSLESYFNGSNKEILNLVTNPYEFSYNGVDVLAVSGKNINDICKYVIPSNDNGESENKVEEGESNDFKDDIEHRLDLMECTMKWQNIAPTAPDTLWCYPYTDKDPFVLDKWPHVYIVANQPYFGTRVVEIGGKNIKIISVPEFSSTGMIILLDLETLEAETVKIDI
# B11: RNASE1 mature P114G/H12A (Bos taurus, UniProt P61823); sequence looked up; chain KETAAAKFERQAMDSSTSAASSSNYCNQMMKSRNLTKDRCKPVNTFVHESLADVQAVCSQKNVACKNGQTNCYQSYSTMSITDCRETGSSKYPNCAYKTTQANKHIIVACEGNGYVPVHFDASV
# B12: RAB32 (Homo sapiens, UniProt Q13637); sequence looked up; chain MAGGGAGDPGLGAAAAPAPETREHLFKVLVIGELGVGKTSIIKRYVHQLFSQHYRATIGVDFALKVLNWDSRTLVRLQLWDIAGQERFGNMTRVYYKEAVGAFVVFDISRSSTFEAVLKWKSDLDSKVHLPNGSPIPAVLLANKCDQNKDSSQSPSQVDQFCKEHGFAGWFETSAKDNINIEEAARFLVEKILVNHQSFPNEENDVDKIKLDQETLRAENKSQCC
# B13: POL30 1-258 K164R (Saccharomyces cerevisiae, UniProt P15873); chain MLEAKFEEASLFKRIIDGFKDCVQLVNFQCKEDGIIAQAVDDSRVLLVSLEIGVEAFQEYRCDHPVTLGMDLTSLSKILRCGNNTDTLTLIADNTPDSIILLFEDTKKDRIAEYSLKLMDIDADFLKIEELQYDSTLSLPSSEFSKIVRDLSQLSDSINIMITRETIKFVADGDIGSGSVIIKPFVDMEHPETSIKLEMDQPVDLTFGAKYLLDIIKGSSLSDRVGIRLSSEAPALFQFDLKSGFLQFFLAPKFNDEE
# B14: yjoB (Bacillus subtilis, UniProt O34703); sequence looked up; chain MTNIPFIYQYEEKENERAAAGYGTFGYLITRIEETLYDQYGVFYELYASDDPNTEYWELLVEDVRSGSLEPEHVAYIFEKLEKKTFAYDEDEKEPDYTVHKSIRNSVYAYPEKGVAFARIPYFQDGSIMSFDCLFAVNDEKMRAFLEGVRPRLWEKSKRKVTVFTDGDGGTSREQEAIVREVQRSQVIMNPLLKKEIYRSIDQFFHSDKSFYQTYDIPYKRGILLYGPPGNGKTTLVKSIAGSIDAPVAYWQITEFTSSETIEEVFQAARRLAPAVLVIEDIDSMPEDVRSFFLNTLDGATSKEGLFLIGTTNYPEEIDPGLMNRAGRFDRAYEIGLPDEELRLEYMKMRGFGIFLSEGEIKNAAKLTEGFSFAQLGELYVSSALQWHQEGNHHIETMVKDMTGEQRKSQRGSWMERNKVGFH
# B15: AIR2 1-223 (Saccharomyces cerevisiae, UniProt Q12476); sequence looked up; chain MEKNTAPFVVDTAPTTPPDKLVAPSIEEVNSNPNELRALRGQGRYFGVSDDDKDAIKEAAPKCNNCSQRGHLKKDCPHIICSYCGATDDHYSRHCPKAIQCSKCDEVGHYRSQCPHKWKKVQCTLCKSKKHSKERCPSIWRAYILVDDNEKAKPKVLPFHTIYCYNCGGKGHFGDDCKEKRSSRVPNEDGSAFTGSNLSVELKQEYYRHMNRNSDENEDYQFS
# B16: POMP (Homo sapiens, UniProt Q9Y244); chain MNARGLGSELKDSIPVTELSASGPFESHDLLRKGFSCVKNELLPSHPLELSEKNFQLNQDKMNFSTLRNIQGLFAPLKLQMEFKAVQQVQRLPFLSSSNLSLDVLRGNDETIGFEDILNDPSQSEVMGEPHLMVEYKLGLL
# Sequence of UniProt Q5SLP6 (whole entry, looked up): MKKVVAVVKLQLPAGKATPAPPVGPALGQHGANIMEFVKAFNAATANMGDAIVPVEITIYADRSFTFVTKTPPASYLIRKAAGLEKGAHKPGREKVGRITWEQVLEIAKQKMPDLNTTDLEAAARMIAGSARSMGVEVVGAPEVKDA
# Sequence of UniProt Q9BXW4 (whole entry, looked up): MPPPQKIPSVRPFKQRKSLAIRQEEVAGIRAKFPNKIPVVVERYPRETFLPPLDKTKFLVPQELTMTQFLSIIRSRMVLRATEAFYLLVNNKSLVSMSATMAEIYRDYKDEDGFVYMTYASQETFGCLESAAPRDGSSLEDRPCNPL
# Sequence of UniProt P26901 (whole entry, looked up): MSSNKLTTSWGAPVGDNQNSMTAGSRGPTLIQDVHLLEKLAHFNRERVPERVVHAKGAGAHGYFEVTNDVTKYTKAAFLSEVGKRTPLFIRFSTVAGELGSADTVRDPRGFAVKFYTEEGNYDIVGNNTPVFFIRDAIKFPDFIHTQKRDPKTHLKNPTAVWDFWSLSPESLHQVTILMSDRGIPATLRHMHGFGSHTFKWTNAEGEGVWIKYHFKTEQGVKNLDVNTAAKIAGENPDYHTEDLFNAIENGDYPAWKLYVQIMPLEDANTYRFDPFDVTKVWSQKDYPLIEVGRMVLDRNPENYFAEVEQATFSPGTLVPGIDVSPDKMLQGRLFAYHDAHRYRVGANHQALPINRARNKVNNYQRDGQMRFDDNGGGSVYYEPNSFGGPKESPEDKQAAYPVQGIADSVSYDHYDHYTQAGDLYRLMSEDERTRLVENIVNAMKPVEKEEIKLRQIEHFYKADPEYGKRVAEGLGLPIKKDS
# Sequence of UniProt P15436 (whole entry, looked up): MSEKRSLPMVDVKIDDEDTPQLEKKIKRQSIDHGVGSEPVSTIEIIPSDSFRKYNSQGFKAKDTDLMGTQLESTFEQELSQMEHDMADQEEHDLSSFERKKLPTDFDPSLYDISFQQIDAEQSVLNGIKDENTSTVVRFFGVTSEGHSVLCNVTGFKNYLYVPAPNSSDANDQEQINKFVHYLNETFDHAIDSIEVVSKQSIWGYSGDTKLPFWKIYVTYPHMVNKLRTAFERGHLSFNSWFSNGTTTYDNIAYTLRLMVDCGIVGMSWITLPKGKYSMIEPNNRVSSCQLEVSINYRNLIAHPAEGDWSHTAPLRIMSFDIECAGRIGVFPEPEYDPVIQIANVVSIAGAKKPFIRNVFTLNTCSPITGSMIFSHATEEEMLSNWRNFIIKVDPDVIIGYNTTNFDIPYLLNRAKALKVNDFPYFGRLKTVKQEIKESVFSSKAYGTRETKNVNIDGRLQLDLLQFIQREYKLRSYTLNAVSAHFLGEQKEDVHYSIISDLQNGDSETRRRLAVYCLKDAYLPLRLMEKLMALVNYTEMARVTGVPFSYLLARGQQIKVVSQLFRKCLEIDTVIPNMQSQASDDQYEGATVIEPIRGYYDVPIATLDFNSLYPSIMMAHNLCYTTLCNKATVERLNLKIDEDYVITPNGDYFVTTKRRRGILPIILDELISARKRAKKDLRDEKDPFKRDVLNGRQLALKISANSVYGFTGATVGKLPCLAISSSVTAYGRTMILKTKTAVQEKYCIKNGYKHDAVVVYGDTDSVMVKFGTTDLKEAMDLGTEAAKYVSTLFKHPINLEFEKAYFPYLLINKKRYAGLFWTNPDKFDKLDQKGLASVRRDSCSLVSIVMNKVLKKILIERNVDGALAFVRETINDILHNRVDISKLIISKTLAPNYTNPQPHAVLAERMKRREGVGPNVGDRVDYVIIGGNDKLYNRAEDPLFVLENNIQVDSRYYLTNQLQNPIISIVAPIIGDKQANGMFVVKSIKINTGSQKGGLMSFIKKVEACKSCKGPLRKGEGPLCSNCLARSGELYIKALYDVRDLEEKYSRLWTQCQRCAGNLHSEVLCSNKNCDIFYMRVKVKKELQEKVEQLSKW
# Sequence of UniProt P24004 (whole entry, looked up): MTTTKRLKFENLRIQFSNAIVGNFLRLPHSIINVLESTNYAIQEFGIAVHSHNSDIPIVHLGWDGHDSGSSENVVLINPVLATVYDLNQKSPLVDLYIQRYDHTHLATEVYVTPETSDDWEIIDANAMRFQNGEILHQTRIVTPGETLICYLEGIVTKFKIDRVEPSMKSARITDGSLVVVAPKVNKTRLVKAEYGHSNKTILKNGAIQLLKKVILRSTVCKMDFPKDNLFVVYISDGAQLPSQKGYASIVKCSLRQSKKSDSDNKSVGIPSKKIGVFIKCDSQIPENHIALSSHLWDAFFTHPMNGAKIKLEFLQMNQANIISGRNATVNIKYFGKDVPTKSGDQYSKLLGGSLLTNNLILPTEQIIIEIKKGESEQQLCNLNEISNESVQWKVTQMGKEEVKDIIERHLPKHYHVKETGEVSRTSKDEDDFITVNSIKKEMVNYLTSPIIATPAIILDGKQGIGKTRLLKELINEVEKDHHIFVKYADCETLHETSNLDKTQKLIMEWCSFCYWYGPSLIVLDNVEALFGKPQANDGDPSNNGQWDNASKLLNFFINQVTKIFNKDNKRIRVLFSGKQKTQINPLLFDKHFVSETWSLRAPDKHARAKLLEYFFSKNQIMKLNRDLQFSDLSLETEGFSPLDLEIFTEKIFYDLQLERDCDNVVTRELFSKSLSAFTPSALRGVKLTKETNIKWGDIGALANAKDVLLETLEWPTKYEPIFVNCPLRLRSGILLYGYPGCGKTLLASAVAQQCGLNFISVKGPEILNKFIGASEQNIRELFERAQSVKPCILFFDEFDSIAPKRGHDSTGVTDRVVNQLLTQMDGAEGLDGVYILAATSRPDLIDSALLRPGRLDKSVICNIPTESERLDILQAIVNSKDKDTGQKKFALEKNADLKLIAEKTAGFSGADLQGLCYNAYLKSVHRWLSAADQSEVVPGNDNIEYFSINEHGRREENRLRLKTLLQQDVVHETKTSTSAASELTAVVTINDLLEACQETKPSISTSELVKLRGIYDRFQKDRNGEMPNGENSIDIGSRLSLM
# Sequence of UniProt P43605 (whole entry, looked up): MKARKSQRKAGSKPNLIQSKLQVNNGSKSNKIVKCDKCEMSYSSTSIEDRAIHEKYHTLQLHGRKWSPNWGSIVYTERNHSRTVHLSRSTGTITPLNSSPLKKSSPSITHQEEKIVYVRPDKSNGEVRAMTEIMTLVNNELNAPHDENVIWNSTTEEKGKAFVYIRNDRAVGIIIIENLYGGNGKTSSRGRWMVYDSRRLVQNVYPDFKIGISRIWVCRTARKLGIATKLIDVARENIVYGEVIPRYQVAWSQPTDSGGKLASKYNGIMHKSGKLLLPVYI
# Sequence of UniProt P47047 (whole entry, looked up): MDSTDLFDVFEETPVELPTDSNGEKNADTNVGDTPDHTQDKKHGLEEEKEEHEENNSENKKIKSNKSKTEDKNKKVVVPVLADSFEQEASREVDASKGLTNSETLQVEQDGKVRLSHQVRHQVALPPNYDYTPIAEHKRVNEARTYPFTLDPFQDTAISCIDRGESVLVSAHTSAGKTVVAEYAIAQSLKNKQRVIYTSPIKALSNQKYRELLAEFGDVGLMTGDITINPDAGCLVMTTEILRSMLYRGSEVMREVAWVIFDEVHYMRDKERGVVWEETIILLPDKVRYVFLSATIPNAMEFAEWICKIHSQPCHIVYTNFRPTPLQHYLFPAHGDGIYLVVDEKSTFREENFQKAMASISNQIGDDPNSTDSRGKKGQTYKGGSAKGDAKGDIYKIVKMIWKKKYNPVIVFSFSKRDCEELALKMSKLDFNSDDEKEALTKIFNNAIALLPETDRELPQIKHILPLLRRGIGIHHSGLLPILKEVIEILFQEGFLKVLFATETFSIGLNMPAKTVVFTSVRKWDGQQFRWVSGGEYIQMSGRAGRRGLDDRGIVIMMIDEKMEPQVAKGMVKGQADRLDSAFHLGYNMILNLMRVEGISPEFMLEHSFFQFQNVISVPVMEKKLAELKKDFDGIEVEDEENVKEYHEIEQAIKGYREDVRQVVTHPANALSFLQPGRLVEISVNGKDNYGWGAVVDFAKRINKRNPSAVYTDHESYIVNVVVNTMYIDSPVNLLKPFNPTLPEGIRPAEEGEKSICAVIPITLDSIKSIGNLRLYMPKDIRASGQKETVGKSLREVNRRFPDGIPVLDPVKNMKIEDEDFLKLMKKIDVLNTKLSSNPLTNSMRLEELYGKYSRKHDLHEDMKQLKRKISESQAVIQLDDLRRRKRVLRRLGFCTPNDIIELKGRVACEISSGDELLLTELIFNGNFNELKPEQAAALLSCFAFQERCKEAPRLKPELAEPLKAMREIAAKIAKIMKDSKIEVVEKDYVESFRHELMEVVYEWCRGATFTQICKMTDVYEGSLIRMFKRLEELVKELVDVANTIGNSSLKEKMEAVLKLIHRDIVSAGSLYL
# Sequence of UniProt Q9NPY3 (whole entry, looked up): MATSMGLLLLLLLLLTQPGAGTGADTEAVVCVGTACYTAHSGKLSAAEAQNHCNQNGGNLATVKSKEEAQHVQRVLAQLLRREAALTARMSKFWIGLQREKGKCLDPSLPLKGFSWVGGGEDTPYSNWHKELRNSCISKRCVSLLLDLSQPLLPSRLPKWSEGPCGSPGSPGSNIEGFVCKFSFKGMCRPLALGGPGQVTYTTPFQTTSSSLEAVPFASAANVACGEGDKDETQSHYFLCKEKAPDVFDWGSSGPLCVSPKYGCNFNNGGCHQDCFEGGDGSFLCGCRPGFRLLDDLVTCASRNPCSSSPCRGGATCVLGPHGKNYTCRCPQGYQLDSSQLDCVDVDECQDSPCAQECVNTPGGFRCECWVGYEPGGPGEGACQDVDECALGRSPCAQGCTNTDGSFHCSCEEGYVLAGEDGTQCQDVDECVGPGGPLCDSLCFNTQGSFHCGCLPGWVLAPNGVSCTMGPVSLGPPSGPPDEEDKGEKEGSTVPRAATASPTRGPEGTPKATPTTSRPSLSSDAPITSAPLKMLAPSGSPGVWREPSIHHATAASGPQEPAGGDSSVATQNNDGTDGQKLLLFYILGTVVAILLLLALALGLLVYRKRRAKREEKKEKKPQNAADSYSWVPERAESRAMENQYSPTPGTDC
Substance,partner,assay,test system,setting,binding
"MQRSIMSFFHPKKEGKAKKPEKE (LIG1 1-23 (Homo sapiens, UniProt P18858); sequence looked up)","PCNA (Homo sapiens, UniProt P12004)",co-IP,peptide,,binds
B1 (IGFBP7 30-159 K146A),"CD93 25-347 (Homo sapiens, UniProt Q9NPY3)",ITC,,25 °C,binds
"HEEWEMVPRHS (STBD1 200-210 (Homo sapiens, UniProt O95210))","MAP1LC3C (Homo sapiens, UniProt Q9BXW4)",ITC,,,binds
B2 (KAT7 364-473),"KAT8 (Homo sapiens, UniProt Q9H7Z6)",pull-down,,,binds
B3 (BECN1 90-171),"BCL2L1 1-208 N52D/N66D (Homo sapiens, UniProt Q07817-1)",pull-down,,,binds
"KKISNTAAALVSLLDEND (NUP60 267-284 (Saccharomyces cerevisiae, UniProt P39705); sequence looked up)","MLP1 382-620 (Saccharomyces cerevisiae, UniProt Q02455)",pull-down,peptide,,binds
"RRRRKRVNTKRSSRAFRAHLRAPLKGNCTHPEDMKLCTVIMKSNGSFPVN (DRD2 217-266 (Homo sapiens, UniProt P14416))","EPB41L2 939-1005 (Homo sapiens, UniProt O43491)",ITC,,,binds
B4 (lpxC 1-305),"lapB 21-389 H181R (Escherichia coli, UniProt P0AB58)",pull-down,,,binds
KBTBD2 S252D (Homo sapiens) (sequence not shown),"PIK3R1 (Homo sapiens, UniProt P27986)",SEC,,,binds
B5 (PEX6 1-1030),"PEX1 1-1043 (Saccharomyces cerevisiae, UniProt P24004)",pull-down,,not purified,binds
B6 (nap1l1),H2A.S2/H2B full length heterodimer (Xenopus laevis),pull-down,,,binds
B7 (pduL),"PduB (Salmonella enterica Typhimurium LT2, UniProt P37449)",cross-linking,,,binds
B8 (POLA1 1265-1462),"PRIM2 1-265 (Homo sapiens, UniProt P49643)",co-purification,,,binds
B9,"EMC3 C-terminal GFP fusion T102C (Homo sapiens, UniProt Q9P0I2)",cross-linking,,,binds
B10 (POL31),"POL3 (Saccharomyces cerevisiae, UniProt P15436)",mass photometry,,,binds
B11 (RNASE1 mature P114G/H12A),"RNASE1 mature P114G/H119A (Bos taurus, UniProt P61823)",SEC,,,binds
B12 (RAB32),"OPTN (Homo sapiens, UniProt Q96CV9)",pull-down,,,binds
"MWVYRLKGTLEALDPILPGLFDGGARGLWEREGEVWAFFPAPVDLPYEGVWEEVGDEDW (prmA 1-59 (Thermus thermophilus, UniProt Q84BQ9); sequence looked up)","rplK N-terminal domain 2-72 (Thermus thermophilus, UniProt Q5SLP6)",X-ray crystallography,,"complex, N-terminal domains",binds
B13 (POL30 1-258 K164R),"ECO1 (Saccharomyces cerevisiae, UniProt P43605)",pull-down,,,binds
B14 (yjoB),"katA (Bacillus subtilis, UniProt P26901)",SEC,,with: AMPPNP,binds
B15 (AIR2 1-223),"MTR4 (Saccharomyces cerevisiae, UniProt P47047)",HDX-MS,,,binds
B16 (POMP),"PSMA7 (Homo sapiens, UniProt O14818)",cryo-EM,,,binds

# Repeated from above:
Substance,partner,assay,test system,setting,binding
"HEEWEMVPRHS (STBD1 200-210 (Homo sapiens, UniProt O95210))","MAP1LC3C (Homo sapiens, UniProt Q9BXW4)",ITC,,,binds
B8 (POLA1 1265-1462),"PRIM2 1-265 (Homo sapiens, UniProt P49643)",co-purification,,,binds
B10 (POL31),"POL3 (Saccharomyces cerevisiae, UniProt P15436)",mass photometry,,,binds
B9,"EMC3 C-terminal GFP fusion T102C (Homo sapiens, UniProt Q9P0I2)",cross-linking,,,binds
